# Assay results gathered from unrelated publications.
# Each numbered part is a random draw from the data of one study; scales do not carry over between parts.
# UniProt P42681, sequence (whole entry, looked up): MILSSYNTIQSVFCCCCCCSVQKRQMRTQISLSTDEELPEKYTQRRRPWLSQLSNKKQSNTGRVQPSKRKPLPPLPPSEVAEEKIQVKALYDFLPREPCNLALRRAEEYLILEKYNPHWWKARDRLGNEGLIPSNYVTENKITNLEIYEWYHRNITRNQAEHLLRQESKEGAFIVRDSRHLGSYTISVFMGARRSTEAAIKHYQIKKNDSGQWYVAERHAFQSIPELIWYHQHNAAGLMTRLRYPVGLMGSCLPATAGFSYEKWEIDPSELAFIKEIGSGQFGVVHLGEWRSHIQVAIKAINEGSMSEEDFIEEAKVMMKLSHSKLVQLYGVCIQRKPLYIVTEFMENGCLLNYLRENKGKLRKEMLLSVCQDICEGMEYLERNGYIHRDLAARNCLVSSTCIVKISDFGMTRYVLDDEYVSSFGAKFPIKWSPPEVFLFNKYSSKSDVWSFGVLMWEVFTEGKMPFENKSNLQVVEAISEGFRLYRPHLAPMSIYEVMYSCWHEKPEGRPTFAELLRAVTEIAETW
# UniProt O00238, sequence (whole entry, looked up): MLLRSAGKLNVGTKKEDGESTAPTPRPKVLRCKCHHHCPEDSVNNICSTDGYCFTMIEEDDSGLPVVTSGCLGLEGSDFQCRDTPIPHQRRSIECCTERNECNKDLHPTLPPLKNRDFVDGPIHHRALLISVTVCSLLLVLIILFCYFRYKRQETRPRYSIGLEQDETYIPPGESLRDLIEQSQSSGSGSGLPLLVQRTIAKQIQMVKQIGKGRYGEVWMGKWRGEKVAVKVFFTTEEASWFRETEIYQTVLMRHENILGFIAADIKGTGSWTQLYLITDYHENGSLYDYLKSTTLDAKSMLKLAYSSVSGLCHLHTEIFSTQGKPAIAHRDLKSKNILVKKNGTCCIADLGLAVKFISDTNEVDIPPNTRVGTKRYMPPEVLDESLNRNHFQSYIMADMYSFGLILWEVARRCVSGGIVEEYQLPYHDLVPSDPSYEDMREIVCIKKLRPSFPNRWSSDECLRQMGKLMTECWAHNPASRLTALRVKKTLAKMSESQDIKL
# UniProt Q02750, sequence (whole entry, looked up): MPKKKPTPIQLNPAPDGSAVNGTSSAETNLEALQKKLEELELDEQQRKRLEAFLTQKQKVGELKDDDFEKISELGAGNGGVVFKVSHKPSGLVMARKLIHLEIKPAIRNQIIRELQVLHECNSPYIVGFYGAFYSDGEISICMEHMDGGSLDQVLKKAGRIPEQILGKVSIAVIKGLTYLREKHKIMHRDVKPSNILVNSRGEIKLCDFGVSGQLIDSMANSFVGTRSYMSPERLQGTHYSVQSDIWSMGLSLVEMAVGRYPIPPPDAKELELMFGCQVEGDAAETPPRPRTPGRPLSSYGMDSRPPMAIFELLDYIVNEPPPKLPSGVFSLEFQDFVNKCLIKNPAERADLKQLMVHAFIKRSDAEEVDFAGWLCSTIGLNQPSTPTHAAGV
# UniProt P48729, sequence (whole entry, looked up): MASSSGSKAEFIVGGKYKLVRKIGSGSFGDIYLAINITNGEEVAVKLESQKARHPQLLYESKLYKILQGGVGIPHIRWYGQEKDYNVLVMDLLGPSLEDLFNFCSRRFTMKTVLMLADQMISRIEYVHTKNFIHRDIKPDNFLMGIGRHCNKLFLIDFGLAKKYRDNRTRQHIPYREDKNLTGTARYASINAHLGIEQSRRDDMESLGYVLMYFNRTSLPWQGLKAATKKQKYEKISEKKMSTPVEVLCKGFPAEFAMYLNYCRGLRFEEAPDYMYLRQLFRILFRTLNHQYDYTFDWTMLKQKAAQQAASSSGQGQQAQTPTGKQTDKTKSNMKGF
# UniProt Q16539, sequence (whole entry, looked up): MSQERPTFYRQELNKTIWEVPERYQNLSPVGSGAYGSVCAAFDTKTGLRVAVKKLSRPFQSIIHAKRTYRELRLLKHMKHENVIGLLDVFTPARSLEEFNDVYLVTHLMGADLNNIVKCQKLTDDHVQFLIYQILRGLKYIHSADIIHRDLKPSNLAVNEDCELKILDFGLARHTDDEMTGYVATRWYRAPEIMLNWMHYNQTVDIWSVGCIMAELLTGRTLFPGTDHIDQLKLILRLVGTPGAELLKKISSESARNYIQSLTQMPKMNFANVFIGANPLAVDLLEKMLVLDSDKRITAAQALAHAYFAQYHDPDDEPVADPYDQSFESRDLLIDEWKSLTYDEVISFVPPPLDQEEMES
# UniProt P35968, sequence (whole entry, looked up): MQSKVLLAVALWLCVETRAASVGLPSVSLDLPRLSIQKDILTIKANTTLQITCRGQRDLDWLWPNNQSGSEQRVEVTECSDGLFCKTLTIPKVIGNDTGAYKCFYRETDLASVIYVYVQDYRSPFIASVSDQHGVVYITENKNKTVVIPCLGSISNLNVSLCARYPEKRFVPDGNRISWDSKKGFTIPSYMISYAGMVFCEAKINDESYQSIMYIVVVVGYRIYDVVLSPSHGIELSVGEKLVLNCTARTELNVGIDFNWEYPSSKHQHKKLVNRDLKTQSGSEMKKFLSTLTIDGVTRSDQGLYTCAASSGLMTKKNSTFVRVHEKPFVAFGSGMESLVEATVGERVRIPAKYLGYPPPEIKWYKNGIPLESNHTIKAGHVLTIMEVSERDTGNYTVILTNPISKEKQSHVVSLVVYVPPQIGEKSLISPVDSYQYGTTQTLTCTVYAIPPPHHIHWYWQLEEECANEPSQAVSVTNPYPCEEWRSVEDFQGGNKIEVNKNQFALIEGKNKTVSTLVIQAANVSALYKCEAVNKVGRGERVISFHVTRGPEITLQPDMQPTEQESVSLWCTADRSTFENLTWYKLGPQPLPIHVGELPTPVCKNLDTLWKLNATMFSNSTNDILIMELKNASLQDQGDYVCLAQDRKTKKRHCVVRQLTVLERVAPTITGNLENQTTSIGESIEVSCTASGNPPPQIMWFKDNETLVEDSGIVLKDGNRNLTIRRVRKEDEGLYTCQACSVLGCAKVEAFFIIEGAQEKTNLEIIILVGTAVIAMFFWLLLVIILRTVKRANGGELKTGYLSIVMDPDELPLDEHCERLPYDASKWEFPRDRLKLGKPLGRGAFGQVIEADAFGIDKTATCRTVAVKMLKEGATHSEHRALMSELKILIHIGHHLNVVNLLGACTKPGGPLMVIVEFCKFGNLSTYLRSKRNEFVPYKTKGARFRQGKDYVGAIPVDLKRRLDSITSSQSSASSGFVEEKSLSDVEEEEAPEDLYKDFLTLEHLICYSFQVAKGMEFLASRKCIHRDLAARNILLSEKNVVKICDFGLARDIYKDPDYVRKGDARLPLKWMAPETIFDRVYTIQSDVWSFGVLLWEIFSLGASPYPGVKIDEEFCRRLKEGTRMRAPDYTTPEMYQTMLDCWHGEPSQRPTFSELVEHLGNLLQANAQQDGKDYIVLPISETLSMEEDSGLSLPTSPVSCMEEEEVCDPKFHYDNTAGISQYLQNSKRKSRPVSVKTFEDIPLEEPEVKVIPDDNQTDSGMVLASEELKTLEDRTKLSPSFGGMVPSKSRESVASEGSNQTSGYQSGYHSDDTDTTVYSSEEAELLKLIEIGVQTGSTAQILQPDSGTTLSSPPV
# UniProt Q14012, sequence (whole entry, looked up): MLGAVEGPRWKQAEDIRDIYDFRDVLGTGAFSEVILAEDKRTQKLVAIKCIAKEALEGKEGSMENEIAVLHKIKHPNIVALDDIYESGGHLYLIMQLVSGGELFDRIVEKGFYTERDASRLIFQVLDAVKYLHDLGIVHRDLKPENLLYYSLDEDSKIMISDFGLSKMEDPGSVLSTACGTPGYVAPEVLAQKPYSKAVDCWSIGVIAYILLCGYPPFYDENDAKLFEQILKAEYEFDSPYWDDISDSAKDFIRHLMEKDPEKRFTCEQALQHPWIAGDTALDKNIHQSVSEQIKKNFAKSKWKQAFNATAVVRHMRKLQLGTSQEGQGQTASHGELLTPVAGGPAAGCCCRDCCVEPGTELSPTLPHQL
# UniProt Q8NG66, sequence (whole entry, looked up): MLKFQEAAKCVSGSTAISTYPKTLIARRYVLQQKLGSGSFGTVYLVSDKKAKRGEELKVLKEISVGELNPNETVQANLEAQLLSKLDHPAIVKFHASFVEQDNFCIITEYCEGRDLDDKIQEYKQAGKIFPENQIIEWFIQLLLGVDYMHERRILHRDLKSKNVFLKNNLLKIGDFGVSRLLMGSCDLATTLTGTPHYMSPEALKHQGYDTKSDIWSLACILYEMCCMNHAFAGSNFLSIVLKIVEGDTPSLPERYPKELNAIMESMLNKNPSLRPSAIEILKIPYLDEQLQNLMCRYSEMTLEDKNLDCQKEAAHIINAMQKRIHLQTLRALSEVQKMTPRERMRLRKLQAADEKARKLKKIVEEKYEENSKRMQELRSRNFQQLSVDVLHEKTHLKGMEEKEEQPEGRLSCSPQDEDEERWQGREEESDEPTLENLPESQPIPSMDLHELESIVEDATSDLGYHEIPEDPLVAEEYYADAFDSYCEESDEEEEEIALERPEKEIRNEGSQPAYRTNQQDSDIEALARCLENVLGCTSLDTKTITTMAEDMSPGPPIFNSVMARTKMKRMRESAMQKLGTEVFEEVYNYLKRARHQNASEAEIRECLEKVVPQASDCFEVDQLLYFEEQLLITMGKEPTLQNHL
# UniProt Q15759, sequence (whole entry, looked up): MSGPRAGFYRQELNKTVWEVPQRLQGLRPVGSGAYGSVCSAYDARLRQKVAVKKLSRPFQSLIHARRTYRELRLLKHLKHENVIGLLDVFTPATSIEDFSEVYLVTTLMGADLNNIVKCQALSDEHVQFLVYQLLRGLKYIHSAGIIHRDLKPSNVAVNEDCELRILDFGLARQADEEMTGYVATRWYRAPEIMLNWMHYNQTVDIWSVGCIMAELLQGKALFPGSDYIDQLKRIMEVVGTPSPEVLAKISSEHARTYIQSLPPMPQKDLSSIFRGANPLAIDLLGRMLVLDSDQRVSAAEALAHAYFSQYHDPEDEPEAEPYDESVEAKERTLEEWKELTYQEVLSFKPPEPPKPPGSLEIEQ

# Study 1
# SMILES: CCc1[nH]c(-c2ccc(OC)cc2)nc1-c1ccncc1
# Effect on: enzyme activity
# Action: inhibitor
# Concentration: 0.5 µM
# Relative to: control
target,remaining activity [%]
"Dual specificity mitogen-activated protein kinase kinase 1 (MAP2K1, Homo sapiens, UniProt Q02750)",97.8
"Serine/threonine-protein kinase PLK3 (PLK3, Homo sapiens, UniProt Q9H4B4)",96.9
"Serine/threonine-protein kinase PAK 3 (PAK3, Homo sapiens, UniProt O75914)",103
"G protein-coupled receptor kinase 4 (GRK4, Homo sapiens, UniProt P32298)",99.3
"Vascular endothelial growth factor receptor 2 (KDR, Homo sapiens, UniProt P35968)",103
"Hepatocyte growth factor receptor (MET, Homo sapiens, UniProt P08581)",97.7
"Mitogen-activated protein kinase 11 (MAPK11, Homo sapiens, UniProt Q15759)",104
"Serine/threonine-protein kinase MARK2 (MARK2, Homo sapiens, UniProt Q7KZI7)",99.4
"Mitogen-activated protein kinase 14 (MAPK14, Homo sapiens, UniProt Q16539)",113
"Mitogen-activated protein kinase 1 (MAPK1, Homo sapiens, UniProt P28482)",97.2
"Serine/threonine-protein kinase Nek3 (NEK3, Homo sapiens, UniProt P51956)",92.4
"Calcium/calmodulin-dependent protein kinase type 1B (PNCK, Homo sapiens, UniProt Q6P2M8)",102
"Tyrosine-protein kinase TXK (TXK, Homo sapiens, UniProt P42681)",100
"Dual specificity protein kinase CLK4 (CLK4, Homo sapiens, UniProt Q9HAZ1)",99.3

# Study 2
# Organism: Sarcocystis neurona
# Effect on: parasite growth
# Concentration: 10 µM
# Time: 96 h
# Notes: first screen
# Relative to: untreated
SMILES,log2 fold change
CC(C)(C)NCC(O)COc1cccc2c1CC(O)C(O)C2 (stereo not drawn),0.36
CC(C(=O)O)c1cccc(C(=O)c2ccccc2)c1 (stereo not drawn),0.25
COc1cc(C(=O)NC2CCCNC2)cc(OC)c1OC (stereo not drawn),0.29
C/C=C1\[C@H]2C=C(C)C[C@]1(N)c1ccc(=O)[nH]c1C2,0.17
CC1(C)O[C@@H]2[C@@H](CO[C@@]3(COS(N)(=O)=O)OC(C)(C)O[C@@H]23)O1,0.04
c1ccc(CC2=NCCN2)cc1,0.38
CCC(C)n1ncn(-c2ccc(N3CCN(c4ccc(OCC5COC(Cn6cncn6)(c6ccc(Cl)cc6Cl)O5)cc4)CC3)cc2)c1=O (stereo not drawn),0.17
Cc1cc2c(s1)Nc1ccccc1N=C2N1CCN(C)CC1,-0.13
CCOc1ccc2ccccc2c1C(=O)N[C@@H]1C(=O)N2[C@@H]1SC(C)(C)[C@@H]2C(=O)O,0.05

# Study 3
# Compound: O=C(Nc1ccccc1)Nc1cccc(Oc2ccc3nccn3n2)c1
# Technique: competitive binding panel
# Concentration: 1 µM
# Relative to: vehicle
target,item,remaining binding [%]
"Serine/threonine-protein kinase 24 (STK24, Homo sapiens, UniProt Q9Y6E0)",MST3,97
"Mitogen-activated protein kinase kinase kinase 4 (MAP3K4, Homo sapiens, UniProt Q9Y6R4)",,96
"Myosin light chain kinase 2, skeletal/cardiac muscle (MYLK2, Homo sapiens, UniProt Q9H1R3)",,100
"Calcium/calmodulin-dependent protein kinase type 1 (CAMK1, Homo sapiens, UniProt Q14012)",,100
"Bone morphogenetic protein receptor type-1B (BMPR1B, Homo sapiens, UniProt O00238)",,100
"Serine/threonine-protein kinase PAK 6 (PAK6, Homo sapiens, UniProt Q9NQU5)",,100
"Casein kinase I isoform alpha (CSNK1A1, Homo sapiens, UniProt P48729)",,100
"Phosphatidylinositol 4,5-bisphosphate 3-kinase catalytic subunit alpha isoform (PIK3CA, Homo sapiens, UniProt P42336, E542K)",,99
"Serine/threonine-protein kinase RIO2 (RIOK2, Homo sapiens, UniProt Q9BVS4)",,100

# Study 4
# Structure (SMILES): O=C1CCc2cc(Nc3cc(OC4CCOCC4)c([N+](=O)[O-])cc3Cl)ccc2N1
# Effect on: cell-free assay
# Technique: competition with immobilised ligand
# Concentration: 1 µM
target,remaining binding [%]
"TRAF2 and NCK-interacting protein kinase (TNIK, Homo sapiens, UniProt Q9UKE5)",100
"Tyrosine-protein kinase TXK (TXK, Homo sapiens, UniProt P42681)",79
"Mitogen-activated protein kinase kinase kinase 11 (MAP3K11, Homo sapiens, UniProt Q16584)",100
"Dual specificity tyrosine-phosphorylation-regulated kinase 1A (DYRK1A, Homo sapiens, UniProt Q13627)",80
"Cytoplasmic tyrosine-protein kinase BMX (BMX, Homo sapiens, UniProt P51813)",69
"Serine/threonine-protein kinase Nek11 (NEK11, Homo sapiens, UniProt Q8NG66)",100
"Tyrosine-protein kinase ABL1, phosphorylated (ABL1, Homo sapiens, UniProt P00519, Q252H)",100

# Repeated from above (study 4):
target,remaining binding [%]
"TRAF2 and NCK-interacting protein kinase (TNIK, Homo sapiens, UniProt Q9UKE5)",100
"Dual specificity tyrosine-phosphorylation-regulated kinase 1A (DYRK1A, Homo sapiens, UniProt Q13627)",80
